# Results gathered from unrelated publications.
# A part holds a random share of what one study measured.

# Set 1
# Target: Ras GTPase-activating protein-binding protein 1, full length (G3BP1, Homo sapiens, UniProt Q13283)
# Chain of UniProt Q13283 (whole entry, looked up): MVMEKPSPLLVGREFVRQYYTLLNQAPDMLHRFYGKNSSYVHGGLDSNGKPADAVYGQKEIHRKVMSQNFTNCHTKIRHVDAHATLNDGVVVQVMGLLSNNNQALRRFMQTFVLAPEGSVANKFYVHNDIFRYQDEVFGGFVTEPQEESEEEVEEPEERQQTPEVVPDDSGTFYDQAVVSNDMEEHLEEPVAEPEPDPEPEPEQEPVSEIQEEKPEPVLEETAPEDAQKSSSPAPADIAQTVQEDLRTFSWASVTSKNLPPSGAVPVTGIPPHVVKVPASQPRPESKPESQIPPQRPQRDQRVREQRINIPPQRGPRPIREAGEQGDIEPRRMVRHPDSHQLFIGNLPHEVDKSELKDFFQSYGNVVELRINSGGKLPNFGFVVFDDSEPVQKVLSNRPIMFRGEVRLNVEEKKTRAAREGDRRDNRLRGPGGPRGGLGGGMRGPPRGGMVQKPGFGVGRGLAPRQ
# Method: RNA Bind-n-Seq
# Molecule type: RNA
# Medium: in vitro
# Tested at: 200 nM
# Notes: whole 134-nt RNA, ends assumed
# Added: 150 mM LiCl
# Reference: input library
# Reading: higher = stronger binding
# Each molecule: 7-deaza-guanosine replaces G
# Constant ends, left off below: GGGAGUUCUACAGUCCGACGAUC … UGGAAUUCUCGGGUGUCAAGG
Strand,log2 enrichment
AAGUCCUGUGCUACACAUCGUAUGUACCGAAUCGGGAAAAGGGAAAAGGAAAAGGGGAAAGUAUUAUGUUACGCCGUUCGGAUCUGCACU,0.467
UAACUUUAGAGGGGGAUCUGAUGGAUAUGGCAGUGGACGUGGAUUUGGGGAUGGCUAUAAUGGGUAUGGAGGAGGACCUGGAGGUGGCAA,0.0156
AGUCCUGUGCUACACAUCGUAUGUACCGAAUCAAACCCAAAUUUUUAAAUUUUUAAAAAAGUAUUAUGUUACGCCGUUCGGAUCUGCACU,-0.864
UGGCCCUGGUGGCAUGCGGGGAGGAAGAGGUGGCCUCAUGGAUCGUGGUGGUCCCGGUGGAAUGUUCAGAGGUGGCCGUGGUGGAGACAU,0.568
AGUCCUGUGCUACACAUCGUAUGUACCGAAUCGGGGAAAGGGGAAAAAGGGGUGGGGAAAGUAUUAUGUUACGCCGUUCGGAUCUGCACU,0.147
GUCCUGUGCUACACAUCGUAUGUACCGAAUCGGGUUUUUGGGUUUUUUUGGGUUUGGGAAAGUAUUAUGUUACGCCGUUCGGAUCUGCAC,0.435
CUCAAGUCCUGUGCUACACAUCGUAUGUACCGAAUCGGUGGAGGUUUUUUUGGAAAGUAUUAUGUUACGCCGUUCGGAUCUGCACUUCCA,0.416
CUCAAGUCCUGUGCUACACAUCGUAUGUACCGAAUCGGAGGUUUUUGGUUUGGAAAGUAUUAUGUUACGCCGUUCGGAUCUGCACUUCCA,-0.526

# Set 2
# Molecule: EPKTLFLGAGDFQF
# Molecule type: peptide
# Reading: direction not given
target or system,test,system,conditions,enrichment score
,peptide binding,yeast competitive growth,added: B1-Cln2 chimera,1.36
Saccharomyces cerevisiae,"mating pheromone growth arrest, pooled competitive growth deep sequencing",no Cln2 overexpression,peptide tiling library,0.702
Saccharomyces cerevisiae,"binding, yeast competitive growth sequencing","cyclin A1-Cln2 strain, peptide tiling library",,1.34
Saccharomyces cerevisiae,"cell growth, competitive growth deep sequencing",,"peptide tiling library, added: cyclin F-Cln2 fusion",1.86
Saccharomyces cerevisiae,"binding, yeast competitive growth sequencing",cyclin B3-Cln2 fusion strain,peptide tiling library,1.64
Cln2 (Saccharomyces cerevisiae),"peptide binding, competitive growth sequencing","Saccharomyces cerevisiae, unfused Cln2 strain",peptide tiling library,0.928
Saccharomyces cerevisiae,"cell growth, competitive growth deep sequencing",,"peptide tiling library, added: cyclin E2-Cln2 fusion",1.6
human cyclin A2,competitive growth deep sequencing,"Saccharomyces cerevisiae, cyclin A2-Cln2 fusion strain",peptide tiling library,1.62

# Mixed results
Molecule,target or system,test,system,conditions,endpoint,result
"HAUS7 (Homo sapiens, UniProt Q99871)","HAUS2 (Homo sapiens, UniProt Q9NVX0)",cross-linking MS,cell fractions,added: DSSO,cross-linked residues,K228 to K74
MTKEEFTRY,"HLA class I histocompatibility antigen, A alpha chain, allele A*80:01 (Homo sapiens, UniProt P04439)",peptide-MHC binding,peptide,concentration not given,binding,inactive
"BRMS1L (Homo sapiens, UniProt Q5PSV4)","SIN3A (Homo sapiens, UniProt Q96ST3)",cross-linking MS,cell fractions,added: DSSO,cross-linked residues,K118 to K937
"NUP155 (Homo sapiens, UniProt O75694)","NUP205 (Homo sapiens, UniProt Q92621)",cross-linking MS,cell fractions,added: DSSO,cross-linked residues,K1069 to K1219
"GAPDH (Homo sapiens, UniProt P04406)","HNRNPC (Homo sapiens, UniProt P07910)",cross-linking MS,,hits only,interaction screen,cross-linked

# A few entries again (mixed results):
Molecule,target or system,test,system,conditions,endpoint,result
"HAUS7 (Homo sapiens, UniProt Q99871)","HAUS2 (Homo sapiens, UniProt Q9NVX0)",cross-linking MS,cell fractions,added: DSSO,cross-linked residues,K228 to K74
"BRMS1L (Homo sapiens, UniProt Q5PSV4)","SIN3A (Homo sapiens, UniProt Q96ST3)",cross-linking MS,cell fractions,added: DSSO,cross-linked residues,K118 to K937
